Published values pooled from the literature.
Compare with care: the assays were run in different laboratories. ± gives the spread as reported.

SMILES	species	matrix	route	dose	time	notes	tissue uptake
CC(C)C[C@H](NC(=O)CN1CCN(CC(=O)O)CCN(CC(=O)O)CC1)C(=O)N[C@@H](CC(C)C)C(=O)N[C@@H](CC(C)C)C(=O)N[C@@H](CC(C)C)C(=O)N[C@@H](CCCNC(=N)N)C(=O)N[C@H](C(=O)N[C@@H](CCCCN)C(=O)N[C@@H](CCCNC(=N)N)C(N)=O)C(C)C [copper-64 labelled]	CD1 mouse, male	spleen	intravenous	–	15 min	blocked, unlabelled peptide 0.1 µmol	1.9 ± 0.2 %ID/g
CC(C)[C@H](NC(=O)[C@@H]1CCCN1C(=O)[C@H](CCCNC(=N)N)NC(=O)[C@H](CS)NC(=O)[C@H](Cc1c[nH]c2ccccc12)NC(=O)[C@H](CCCNC(=N)N)NC(=O)[C@@H](Cc1ccccc1)NC(=O)[C@H](Cc1c[nH]cn1)NC(=O)[C@H](CCC(=O)O)NC(=O)[C@H](CS)NC(=O)[C@H](CS)NC(=O)[C@H](CCCCN)NC(=O)[C@@H]1CC(=O)N[C@@H](CCCNC(=N)N)C(=O)N[C@H](Cc2ccccc2)C(=O)N[C@@H](CC(=O)O)C(=O)N[C@H](Cc2ccc(O)cc2)C(=O)N1)C(N)=O [technetium-99m labelled]	C57 mouse, female	intestine	intravenous	0.037 MBq	0.5 h	–	2.49 ± 0.6 %ID
CSCC[C@H](NC(=O)[C@H](CC(C)C)NC(=O)[C@H](Cc1c[nH]cn1)NC(=O)CNC(=O)[C@@H](NC(=O)[C@H](C)NC(=O)[C@H](Cc1c[nH]c2ccccc12)NC(=O)[C@H](CCC(N)=O)NC(=O)CCOCCOCCOCCOCCNC(=O)CN1CCN(CC(=O)O)CCN(CC(=O)O)CCN(CC(=O)O)CC1)C(C)C)C(N)=O [indium-111 labelled]	Swiss nu/nu mouse, male, PC-3 tumour xenograft	tumour	intravenous	10 pmol	1 h	–	2.3 ± 0.5 %ID/g
N=C(N)NCCC[C@@H]1NC(=O)[C@H](CCCCNC(=O)CCOCCOCCOCCOCCNC(=O)CC[C@H](NC(=O)CCOCCOCCOCCOCCNC(=O)CN2CCN(CC(=O)O)CCN(CC(=O)O)CCN(CC(=O)O)CC2)C(=O)NCCOCCOCCOCCOCCC(=O)NCCCC[C@@H]2NC(=O)[C@@H](Cc3ccccc3)NC(=O)[C@H](CC(=O)O)NC(=O)CNC(=O)[C@H](CCCNC(=N)N)NC2=O)NC(=O)[C@@H](Cc2ccccc2)NC(=O)[C@H](CC(=O)O)NC(=O)CNC1=O [copper-64 labelled]	athymic nude mouse, female	whole blood	iv	–	4 h	–	0.15 ± 0.07 %ID/g
Cc1cc(O)cc(C)c1C[C@H](NC(=O)[C@@H]1CCCN1C(=O)[C@H](CCCNC(=N)N)NC(=O)[C@H](CCCNC(=N)N)N(C)C(=O)[C@@H]1CCCN1C(=O)[C@@H](CC(C)C)NC(=O)[C@@H](CC(C)C)NC(=O)[C@@H](CC(C)C)NC(=O)[C@@H](CC(C)C)NC(=O)[C@H](CCCCN)NC(=O)CN1CCN(CC(=O)O)CCN(CC(=O)O)CCN(CC(=O)O)CC1)C(=O)N[C@H](C(=O)N[C@@H](CC(C)C)C(=O)O)C(C)(C)C [lutetium-177 labelled]	CF-1 mouse	liver	iv	370 kBq	1 h	–	5.64 ± 0.47 %ID/g
CCCC[C@H](NC(=O)CNC(=O)CNC(=O)CN1CCN(CC(=O)O)CCN(CC(=O)O)CCN(CC(=O)O)CC1)C(=O)N[C@H]1CC(=O)NCCCC[C@@H](C(N)=O)NC(=O)[C@H](Cc2c[nH]c3ccccc23)NC(=O)[C@H](CCCNC(=N)N)NC(=O)[C@@H](Cc2ccccc2)NC(=O)[C@H](Cc2c[nH]cn2)NC1=O [lutetium-177 labelled]	C57 mouse, female	lung	intravenous	0.037 MBq	4 h	–	0.24 ± 0.04 %ID/g
CCCC[C@H](NC(=O)COCCOCCNC(=O)CN1CCN(CC(=O)O)CCN(CC(=O)O)CC1)C(=O)N[C@H]1CC(=O)NCCCC[C@@H](C(N)=O)NC(=O)[C@H](Cc2c[nH]c3ccccc23)NC(=O)[C@H](CCCNC(=N)N)NC(=O)[C@@H](Cc2ccccc2)NC(=O)[C@H](Cc2c[nH]cn2)NC1=O [copper-64 labelled]	C57 mouse	lung, bone and spleen	intravenous	0.37 MBq	2 h	–	< 0.7 %ID/g
Cc1cc(O)cc(C)c1C[C@H](NC(=O)[C@@H]1CCCN1C(=O)[C@H](CCCNC(=N)N)NC(=O)[C@H](CCCNC(=N)N)N(C)C(=O)[C@@H]1CCCN1C(=O)[C@H](CCCCN)NC(=O)[C@@H](CC(C)C)NC(=O)[C@@H](CC(C)C)NC(=O)[C@@H](CC(C)C)NC(=O)[C@@H](CC(C)C)NC(=O)CN1CCN(CC(=O)O)CCN(CC(=O)O)CCN(CC(=O)O)CC1)C(=O)N[C@H](C(=O)N[C@@H](CC(C)C)C(=O)O)C(C)(C)C [lutetium-177 labelled]	CF-1 mouse	liver	iv	370 kBq	24 h	–	5.67 ± 0.57 %ID/g

Excerpt of the above:
SMILES	species	matrix	route	dose	time	notes	tissue uptake
CCCC[C@H](NC(=O)COCCOCCNC(=O)CN1CCN(CC(=O)O)CCN(CC(=O)O)CC1)C(=O)N[C@H]1CC(=O)NCCCC[C@@H](C(N)=O)NC(=O)[C@H](Cc2c[nH]c3ccccc23)NC(=O)[C@H](CCCNC(=N)N)NC(=O)[C@@H](Cc2ccccc2)NC(=O)[C@H](Cc2c[nH]cn2)NC1=O [copper-64 labelled]	C57 mouse	lung, bone and spleen	intravenous	0.37 MBq	2 h	–	< 0.7 %ID/g
